Measured values gathered from unrelated publications.
Parts stem from different laboratories: compare values within a part only. Substitutions count along the parent as printed.

Set 1
Target: Histone acetyltransferase KAT6A, winged helix 2, GST fusion (KAT6A, Homo sapiens, UniProt Q92794, residues 85-181)
Technique: protein binding microarray
Form: double-stranded DNA, one strand shown
Matrix: in vitro
Tested at: not given
Notes: 8-mer, flanks averaged, mean of 2 arrays, mostly near background
Baseline: not given
Direction: higher = stronger binding
Target sequence (chain): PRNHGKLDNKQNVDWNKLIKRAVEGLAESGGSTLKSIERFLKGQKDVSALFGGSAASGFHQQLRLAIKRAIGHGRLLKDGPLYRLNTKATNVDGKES
For `ATCCAATG`, the E-score was -0.131.
With `AGAGGTGA` the E-score was -0.0271.
For `ATATCCGG`, the E-score was 0.0805.
For `CTTGACTA`, the E-score was -0.0341.
With `CCCTAGAG` the E-score was 0.0675.
`ACGTCTTG` has an E-score of -0.183.
The E-score of `ACCTAAGC` is reported as -0.183.
The E-score of `ACCAACTA` is reported as -0.0753.
The E-score of `CCAAACCC` is reported as 0.00373.

Set 2
Target: RING finger protein unkempt homolog, zinc fingers 1-6, GST-SBP tag (UNK, Homo sapiens, UniProt Q9C0B0, residues 30-357)
Technique: RNA Bind-n-Seq
Form: RNA
Matrix: in vitro
Tested at: not given
Notes: RNA with constant flanks, ends assumed
Baseline: input RNA pool
Direction: higher = stronger binding
Target sequence (chain): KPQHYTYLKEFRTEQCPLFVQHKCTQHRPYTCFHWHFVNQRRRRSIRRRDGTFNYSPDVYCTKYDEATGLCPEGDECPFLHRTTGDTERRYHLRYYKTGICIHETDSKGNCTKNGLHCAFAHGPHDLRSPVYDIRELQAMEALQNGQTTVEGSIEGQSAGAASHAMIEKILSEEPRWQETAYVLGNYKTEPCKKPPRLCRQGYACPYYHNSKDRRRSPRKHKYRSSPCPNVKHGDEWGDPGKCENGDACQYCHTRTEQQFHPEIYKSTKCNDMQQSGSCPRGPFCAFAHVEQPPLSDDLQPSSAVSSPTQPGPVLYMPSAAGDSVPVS
The bound/input enrichment of `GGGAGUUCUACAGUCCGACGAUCAAAAUACUACAAGCAGGCUUCAAGAGGAUGGGCGUUGACAAAAUAAUUCCUGUGGAUAAAUCCGUAAAAGGAAAAUUUCAGGACAAUUUUGAAUUUGUUCAAUGGUUCAAGAAGUUUUUUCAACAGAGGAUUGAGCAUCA` is reported as 0.0968 ratio.
For `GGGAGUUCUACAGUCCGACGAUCAAUCACUUUGAAAUCCUCCCUCCUGAACUGGGUGACUGUCGGGCUCUGAAGCGAGCUGGUUCCGUUGCCGAAGAUGCUCUGUUUGAAACUCUGCCUUCUGACGUCCGGGAGCAAAUGAAACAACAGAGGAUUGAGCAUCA`, the bound/input enrichment was 0.335 ratio.
`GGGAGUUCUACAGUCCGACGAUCGUGCUUCAGGUAGAUUCUGGUGCUAAUGCCACUGCCACAGCUCAGUGGUUUGGGGGCAAUAUCCGUGCUCCCUUCGAGGAUGCCUGCCCUCCUGAGGUGGAUUUUCUCAAGCAAGAUUGCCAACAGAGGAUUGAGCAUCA` gave a bound/input enrichment of 0.109 ratio.
With `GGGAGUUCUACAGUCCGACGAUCAGUAGAGAUUCAGCACAGUUGGACUUCAGGAACAGGGACAUACAUUCUGGGGAUUUUCGGGACCGAGAAGGACCACCUAUGGACUACAGGGGUGGAGAUGGUACUCCUAUGGAUUAUAGACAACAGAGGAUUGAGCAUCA` the bound/input enrichment was 0.692 ratio.
For `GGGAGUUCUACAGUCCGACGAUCUUUGCUUUUCAUCUUUUAUAGAUGUAAUCUGAUUUUCAAAAAUCAUUAACACUUUUUAAUCCGUAUCGACUAAGACUUUUUCCCCCUGGAAUCGAGGCUGUGUGUCCGUCAUCCCAGCCCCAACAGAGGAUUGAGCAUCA`, the bound/input enrichment was 0.576 ratio.
With `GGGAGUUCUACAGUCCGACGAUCUUUCUGGUAAAUUCAUGUCAGUAAUUUGUUGAAGAGUUAACAAGAAAAGGUCUUUCCCGAUUGUGUCUAAGAUGAAAUAAAAUGUAACUUUUGCUGCAGUGGUAUGUUUCUUUUGGAGUACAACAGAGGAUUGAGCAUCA` the bound/input enrichment was 0.135 ratio.

Further values, each from its own experiment
CCNB2: CCNB2, cyclin fold, Cln2 fusion (human)
P1: CDC6 docking peptide (human); TLKGRRLVFDNQL; partner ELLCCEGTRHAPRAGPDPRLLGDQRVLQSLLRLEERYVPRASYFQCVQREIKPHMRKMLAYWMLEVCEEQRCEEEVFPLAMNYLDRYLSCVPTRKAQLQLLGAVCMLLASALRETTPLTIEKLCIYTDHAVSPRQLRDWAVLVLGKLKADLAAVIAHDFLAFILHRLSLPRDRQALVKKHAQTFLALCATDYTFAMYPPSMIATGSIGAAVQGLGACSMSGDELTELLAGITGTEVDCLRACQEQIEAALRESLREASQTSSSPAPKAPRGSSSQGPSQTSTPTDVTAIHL
P2: SCAPER docking peptide (human); SNARRSLNFGGST; partner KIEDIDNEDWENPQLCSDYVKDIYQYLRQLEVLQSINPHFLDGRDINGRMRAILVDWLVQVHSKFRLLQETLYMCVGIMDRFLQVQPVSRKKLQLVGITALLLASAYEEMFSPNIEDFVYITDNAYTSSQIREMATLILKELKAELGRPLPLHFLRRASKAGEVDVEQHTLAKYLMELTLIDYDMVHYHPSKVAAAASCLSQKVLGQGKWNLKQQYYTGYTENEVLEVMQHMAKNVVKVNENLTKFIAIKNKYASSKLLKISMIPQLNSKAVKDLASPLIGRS
Under “normalised enrichment score”, `P1 V8M` is recorded as 0.0394 (CCND3, cyclin fold, Cln2 fusion (human); yeast growth competition, sequencing; yeast; weak parent motif; baseline: not given, higher = stronger binding).
With `PhoQ, residues 284 288 289 292 302 303 AMDMFI` the fold induction was 2.35 (PhoP, residues 12 14 15 18 19 QQAYL (Escherichia coli, UniProt P23836); Sort-seq, measured: YFP reporter; E. coli; PhoQ-PhoP variant library, with: 10 µM Mg2+; baseline: high Mg2+ state, higher = stronger signaling).
For `P2 R4V`, “normalised enrichment score” read -0.0407 (CCNB2; yeast growth competition, sequencing; yeast; weak parent motif; baseline: not given, higher = stronger binding).
Under “normalised enrichment score”, `P2 N2L` is recorded as -0.217 (CCNB2; yeast growth competition, sequencing; yeast; weak parent motif; baseline: not given, higher = stronger binding).

A few entries again (set 1):
With `CCCTAGAG` the E-score was 0.0675.
`ACGTCTTG` has an E-score of -0.183.
